Measurements of several laboratories.
Lines come from different studies, so protocols differ. “And” joins repeats or separate records; there may be more than shown. ± marks the error that the study gave.

Compound | target or system | test | system | setting | scale | endpoint | value
COc1ccc(CCNCc2ccc(OCc3ccc(Cl)nc3)c(OC)c2)cc1OC | Trypanosoma cruzi | reporter mRNA translation, inhibitor, item: capped polyadenylated Renilla luciferase mRNA | cell-free extract | concentration not given | baseline: control RNA | relative translation | 109%
O=S(=O)(NCc1ccncc1)c1ccc(C2CCCCC2)cc1 |  | bulk RNA sequencing | CK-p25 mice, female, microglia | intraperitoneal, 0.3 mg/kg daily for 2 weeks, 336 h, genes, PU.1 target, upregulated |  | PU.1 target genes reduced | 8.5%
CCCCCc1ccc(S(=O)(=O)N2CC2C(=O)OC)cc1 (stereo not drawn) |  |  | mouse, Lewis lung carcinoma | intraperitoneal, 5 mg/kg, 16 doses, day 13 |  | tumour volume | 335 mm3
Cc1cnc2nc1Nc1cccc(c1)COC/C=C/COCc1cc(ccc1OCCN1CCOCC1)N2 |  |  | BALB/c mice rhEPO-induced polycythemia | 75 mg/kg |  | spleen weight | 0.165 g and 0.164 g and 0.139 g and 0.135 g and 0.166 g and 0.19 g
COC1OC(C)C(OS(=O)(=O)O)C(OC2OC(C)C(OS(=O)(=O)O)C(OS(=O)(=O)O)C2OS(=O)(=O)O)C1OS(=O)(=O)O (stereo not drawn) |  |  | human plasma | 128 µg/mL | baseline: control | APTT prolongation | 1.4 fold
CC(C)[C@H](NC(=O)[C@H](CC(=O)O)NC(=O)[C@@H](NC(=O)[C@H](Cc1c[nH]c2ccccc12)NC(=O)[C@H](CCC(=O)O)NC(=O)[C@H](C)NC(=O)[C@H](CC(=O)O)NC(=O)CNC(=O)[C@H](Cc1ccc(O)cc1)NC(=O)[C@H](Cc1ccc(OP(=O)(O)O)cc1)NC(=O)[C@H](Cc1ccc(O)cc1)NC(=O)CCNC(=O)c1ccc(C(=O)[O-])c(-c2c3ccc(=[N+](C)C)cc-3oc3cc(N(C)C)ccc23)c1)C(C)C)C(=O)N[C@@H](CO)C(=O)O |  | immunohistochemistry | ApoE-/- mice, aortic sinus sections | dose not given, 21 days |  | CD68-positive area | 19.7 ± 6.64%
N[C@@H](CNC(=O)N[C@@H](CS)C(=O)NCC(=O)O)C(=O)O |  |  | mouse C57BL/6, brain | intranasal, dose not given | baseline: saline i.c.v. | GFAP immunoreactivity | decreased
COc1cc(O)ccc1CCC(c1ccc(O)cc1)c1cc2c(c(C)c1O)OC(c1ccc(O)cc1)CC2 (mixture of isomers) |  | item: 17-HDHA | human whole blood | 30 µM, added: Escherichia coli |  | amount | 598 ± 167 pg/mL blood
COC1CN([C@H]2CC[C@H]([C@@]3(C)Oc4c(Cl)cc(C(=O)NCc5c(SC)cc(C)[nH]c5=O)c(C)c4O3)CC2)C1 |  | RNA-seq, item: mouse KIT homolog | mouse, HT-1376 xenograft, whole blood | dose not given, PRC2 target gene | baseline: vehicle | log2 fold change | 1.94
O=[N+]([O-])c1cc(Br)cc([N+](=O)[O-])c1NS(=O)(=O)c1ccc(Br)cc1 |  | RNA-seq, item: AT1G02520 | Arabidopsis thaliana Col seedlings | dose not given | baseline: DMSO | log2 fold change | 3.88
CC(=O)[O-].O.O.O.O.[Co+2].[O-]c1ccc(Br)cc1C=NCCN1CCOCC1 |  | DPPH radical scavenging |  | 160 µM |  | inhibition | 53.6%
COc1ccccc1-c1ccncc1C(=O)Nc1nnc(OCc2ccc(Cl)cc2)s1 |  |  | Brca1 Δ11/Δ11 Polq-/- MEFs, Mus musculus | 20 µM, average of runs | baseline: 0 µM | colony survival | 15.4%
CCOC(=O)C1CCCN(Cc2ccc(-c3ccccc3)cc2)C1 (stereo not drawn) | Trypanosoma cruzi | reporter mRNA translation, inhibitor, item: capped polyadenylated Renilla luciferase mRNA | cell-free extract | concentration not given | baseline: control RNA | relative translation | 117%
COC1OC(C)C(O)C(OC2OC(C)C(O)C(OC3OC(C)C(O)C(OC4OC(C)C(O)C(OC5OC(C)C(O)C(OC6OC(C)C(O)C(OC7OC(C)C(O)C(OC8OC(C)C(O)C(OC9OC(C)C(O)C(OC%10OC(C)C(O)C(OC%11OC(C)C(O)C(OS(=O)(=O)O)C%11OS(=O)(=O)O)C%10OS(=O)(=O)O)C9OS(=O)(=O)O)C8OS(=O)(=O)O)C7OS(=O)(=O)O)C6OS(=O)(=O)O)C5OS(=O)(=O)O)C4OS(=O)(=O)O)C3OS(=O)(=O)O)C2OS(=O)(=O)O)C1OS(=O)(=O)O (stereo not drawn) |  |  | human plasma | 128 µg/mL | baseline: control | APTT prolongation | 1.3 fold
CCCC[C@@H]1NC(=O)[C@@H](CC(C)C)NC(=O)[C@H](CCCCNC(=O)CN2CCN(CC(=O)O)CCN(CC(=O)O)CC2)NC(=O)NNC(=O)[C@H](Cc2c[nH]cn2)NC(=O)[C@@H](Cc2c[nH]c3ccccc23)NC1=O [copper-64 labelled] |  |  | Balb/c mice, brain | intravenous, dose not given |  | tissue uptake | 0.01 %ID/g

Repeated from above:
Compound | target or system | test | system | setting | scale | endpoint | value
COC1OC(C)C(OS(=O)(=O)O)C(OC2OC(C)C(OS(=O)(=O)O)C(OS(=O)(=O)O)C2OS(=O)(=O)O)C1OS(=O)(=O)O (stereo not drawn) |  |  | human plasma | 128 µg/mL | baseline: control | APTT prolongation | 1.4 fold
